{"data": "Assay results from different studies", "note": "Compare with care: the assays were run in different laboratories. ± marks the error that the study gave."}
{"Compound": "C[C@H](CS)C(=O)N[C@H](Cc1c[nH]c2ccccc12)C(=O)O", "tested on": "Enterobacter aerogenes", "test system": "IMP-1 producing", "setting": "25 µM, added: meropenem", "quantity": "MIC of meropenem", "result": "0.5 µg/mL"}
{"Compound": "N#Cc1ccc(S(=O)(=O)NCc2cn(CB(O)O)nn2)cc1", "tested on": "Klebsiella pneumoniae", "test system": "KPC-producing", "setting": "10 µg/mL, added: cefepime", "quantity": "MIC of cefepime", "result": "4 µg/mL"}
{"Compound": "CO[C@H]1[C@H](O[C@H]([C@H]2O[C@@H](n3ccc(=O)[nH]c3=O)[C@H](O)[C@@H]2O)[C@H](NCCCNC(=O)[C@@H](NC(=O)[C@@H](NC(=O)N[C@H](C(=O)O)C(C)C)[C@@H]2CCNC(=N)N2)[C@@H](OC(=O)CCCCCCCCCCCCNC(=N)N)C(C)C)C(N)=O)O[C@H](CN)[C@H]1O", "tested on": "Enterococcus faecium", "assay": "alamar blue", "test system": "NR-32065", "quantity": "MIC90", "result": "15 ± 0.235 µg/mL"}
{"Compound": "CC(=NO)c1cccc(C(C)(C)NC(=O)Nc2ccc(Cl)c(-c3nc(C(F)(F)F)cs3)c2)c1", "tested on": "Staphylococcus aureus", "test system": "Smith, RPMI medium", "setting": "added: 1 mM guanosine", "quantity": "MIC", "result": "> 64 µM"}
{"Compound": "NCc1ccc(-c2ncc(OCC3CCNCC3)nc2-c2ccc(-c3ccoc3)cc2)cc1", "tested on": "Zika virus", "test system": "U87, FLR", "setting": "1.2 µM, 48 h", "quantity": "infectious virus reduction", "result": "97%"}
{"Compound": "COc1ccc(S(=O)(=O)N(CC(C)C)C[C@@H](O)[C@H](Cc2ccccc2)NC(=O)O[C@H]2CO[C@H]3OC[C@@H](OC)[C@H]32)cc1", "tested on": "HIV-1 LAI", "assay": "viral cytopathic effect, MTT", "test system": "MT2", "quantity": "IC50", "result": "55 nM"}
{"Compound": "C=C(C)c1cccc(C(C)(C)NC(=O)Nc2ccc(Cl)c(O)c2)c1", "tested on": "Staphylococcus aureus", "test system": "Smith, RPMI medium", "setting": "added: 1 mM guanosine", "quantity": "MIC", "result": "> 50 µM"}
{"Compound": "C/C(=C\\C=C\\[C@@H](C)[C@H]1CC[C@@]2(C)[C@@H]3CC[C@H]4C(C)(C)[C@@H](O[C@@H]5O[C@H](CO)[C@@H](O[C@@H]6O[C@H](CO)[C@@H](O)[C@H](O)[C@H]6O)[C@H](O)[C@H]5O[C@@H]5O[C@H](CO)[C@@H](O)[C@H](O)[C@H]5O[C@@H]5O[C@@H](C)[C@H](O)[C@@H](O)[C@H]5O)CC[C@@]45C[C@@]35CC[C@]12C)C(=O)N[C@@H]1C(=O)O[C@H](C)[C@@H]1C (single isomer, unassigned)", "tested on": "Trypanosoma brucei brucei", "assay": "Alamar Blue", "test system": "trypomastigote", "quantity": "IC50", "result": "2570 nM"}
{"Compound": "CO[C@H]1[C@H](O[C@H]([C@H]2O[C@@H](n3ccc(=O)[nH]c3=O)[C@H](O)[C@@H]2O)[C@H](NCCCNC(=O)[C@@H](NC(=O)[C@@H](NC(=O)N[C@H](C(=O)O)C(C)C)[C@@H]2CCNC(=N)N2)[C@@H](OC(=O)CCCCCCCCCCCCN(O)C(=N)N)C(C)C)C(N)=O)O[C@H](CN)[C@H]1O", "tested on": "Cryptococcus neoformans", "assay": "alamar blue", "quantity": "MIC50", "result": "> 35 µg/mL"}
{"Compound": "CN1CC[C@H](c2c(O)cc(O)c3c(=O)cc(-c4ccccn4)oc23)[C@H](O)C1", "tested on": "HIV-1", "assay": "viral replication", "test system": "HeLa-CD4-LTR/β-gal, LAI", "quantity": "EC50", "result": "> 1000 nM"}
{"Compound": "CC(C)(O)Cn1nc(-c2ccc3nc(OC4CC4)ccc3c2)c2c(N)ncnc21", "tested on": "Cryptosporidium parvum", "assay": "parasite growth", "test system": "HCT-8", "quantity": "EC50", "result": "464 nM"}
{"Compound": "NC[C@@H](NC[C@@H]1CCCN1C[C@@H](CO)NC[C@@H](NCCC1CC2CCC1C2)c1ccccc1)c1ccccc1 (stereo partly drawn)", "tested on": "Acinetobacter baumannii", "assay": "bacterial growth", "setting": "compound alone", "quantity": "IC90", "result": "> 24000 nM"}
{"Compound": "CN1CC[C@H](c2c(O)cc(O)c3c(=O)cc(-c4ccc(O)cc4)oc23)[C@H](O)C1", "tested on": "HIV-1", "assay": "viral replication", "test system": "HeLa-CD4-LTR/β-gal, LAI", "quantity": "EC50", "result": "> 3000 nM"}
{"Compound": "NC[C@@H](NC[C@@H]1CCCN1C[C@@H](CO)NC[C@@H](NCCC12CC3CC(CC(C3)C1)C2)c1ccccc1)c1ccccc1", "tested on": "Acinetobacter baumannii", "assay": "bacterial growth", "setting": "16 µM, fold shift of IC50, added: amikacin", "quantity": "potentiation of amikacin", "result": "10.9 fold"}
{"Compound": "CN1CC[C@]23c4c5ccc(O)c4O[C@H]2c2ncc(-c4ccc(Cl)cc4)cc2C[C@@]3(OCCCc2ccccc2)[C@H]1C5", "assay": "antinociception", "test system": "CD-1 mouse, chemotherapy-induced neuropathy", "setting": "sc, day 1", "quantity": "A50", "result": "0.83 mg/kg"}
{"note": "Excerpt of the above:"}
{"Compound": "C[C@H](CS)C(=O)N[C@H](Cc1c[nH]c2ccccc12)C(=O)O", "tested on": "Enterobacter aerogenes", "test system": "IMP-1 producing", "setting": "25 µM, added: meropenem", "quantity": "MIC of meropenem", "result": "0.5 µg/mL"}
